Assay results gathered from unrelated publications.
Protocols differ between the studies behind these lines. Several values in a cell are separate wells, animals, samples, runs or records. ± gives the spread as reported.

SMILES = CN(C)CCCn1c(=O)c2cc(Br)c3c(=O)n(CCCN(C)C)c(=O)c4c5[nH]c6ccc([N+](=O)[O-])cc6[nH]c5c(c1=O)c2c34; target = HIV-1 LTR-III G-quadruplex; test = FRET melting; conditions = 0.25 µM, K+ 100 mM; endpoint = ΔTm; value = 2.5 ± 0.1 °C
SMILES = Oc1ccccc1-c1n[nH]cc1-c1ccnc2ccccc12; target = RIM15 (Candida albicans); test = kinase binding, MIB/MS competition; test system = Candida albicans lysate; conditions = 10 µM; scale = reference: DMSO; endpoint = log2 fold change; value = -0.31
SMILES = CC(=O)NCCCC[C@H](NC(=O)CNC(=O)[C@H](CCCNC(=N)N)NC(C)=O)C(=O)Nc1ccc2c(C)cc(=O)oc2c1; target = human K353L/Y782F mutant enzyme; test = substrate, fluorogenic; endpoint = kcat; value = 0.002 ± 0.001 s⁻¹
SMILES = NCCCOc1cc(NC(=O)c2cccc(C(=O)Nc3cc(OCCCN)c4ccccc4n3)n2)nc2ccccc12; target = Bcl2 G-quadruplex DNA; test = FRET melting; conditions = 1 µM, pH 7.4, together with: 60 mM potassium; endpoint = ΔTm; value = 22.7 ± 0.7 K
SMILES = COC1=C(OC)C(=O)C(CC=C(C)C)=C(C)C1=O; target = FSP1 L323A mutant; test = substrate; conditions = together with: 100 µM co-substrate; endpoint = kcat; value = 12.8 ± 0.95 s⁻¹
SMILES = c1coc(-c2n[nH]cc2-c2ccnc3ccccc23)c1; target = TPK2 (Candida albicans); test = kinase binding, MIB/MS competition; test system = Candida albicans lysate; conditions = 10 µM; scale = reference: DMSO; endpoint = log2 fold change; value = -0.04
SMILES = CCCCNc1ccc(C(=O)OCCN(C)C)cc1; target = bovine CNG channel; test = ion current, pore blocker, inside-out patch clamp; test system = Xenopus oocytes; conditions = 20 °C, +60 mV, pH 7.2, together with: cGMP 2 mM; endpoint = IC50; value = 26.5 µM
SMILES = C[C@@H](N)COc1ccc(-c2cnc3ccc(N[C@H](C)c4cccc(F)c4)nn23)cc1; target = TRKA, TRKB, TRKC, geometric mean; test = inhibitor; endpoint = IC50; value = 0.0047 µM
SMILES = N#Cc1ccn2c(-c3ccncc3)c(-c3ccc(F)cc3)nc2c1; target = orf19.4518 kinase Candida albicans; test = MIB/MS competition binding; test system = Candida albicans cell lysate; conditions = 10 µM; scale = reference: DMSO, lower = stronger binding; endpoint = log2 fold change; value = 0.0728
SMILES = O=C(Nc1cc(OCCN2CCCC2)c2ccccc2n1)c1cc(Cl)cc(C(=O)Nc2cc(OCCN3CCCC3)c3ccccc3n2)n1; target = Bcl2 G-quadruplex DNA; test = FRET melting; conditions = 1 µM, pH 7.4, together with: 60 mM potassium; endpoint = ΔTm; value = 8.6 ± 0.9 K
SMILES = Cc1n[nH]c2ccc(-c3cc(OC[C@@H](N)Cc4ccccc4)cnc3-c3ccoc3)cc12; target = orf19.6492 kinase Candida albicans; test = MIB/MS competition binding; test system = Candida albicans cell lysate; conditions = 10 µM; scale = reference: DMSO, lower = stronger binding; endpoint = log2 fold change; value = -3.3
SMILES = CN(C)CCCn1c(=O)c2cc(Br)c3c(=O)n(CCCN(C)C)c(=O)c4c5[nH]c6ncccc6[nH]c5c(c1=O)c2c34; target = HIV-1 LTR-III G-quadruplex; test = FRET melting; conditions = 0.25 µM, K+ 100 mM; endpoint = ΔTm; value = 1.5 ± 0.1 °C
SMILES = CNC(=O)c1ccc(Nc2ncc(C(F)(F)F)c(NCc3nccnc3N(C)S(C)(=O)=O)n2)cc1; target = phosphodiesterase panel; test = inhibitor; conditions = up to 10 µM, weak PDE2A inhibition; endpoint = inhibition; value = no inhibition
SMILES = Nc1ccccc1NC(=O)c1ccc(CNc2ccc(NC3=C(Cl)C(=O)c4cccnc4C3=O)cc2)cc1; target = HDAC1-3; test = inhibitor, western blot; test system = MDA-MB-231; conditions = concentration not given, 6 h; endpoint = histone H3/H4 acetylation; value = increased
SMILES = c1ccc(-c2n[nH]cc2-c2ccnc3ccccc23)nc1; target = orf19.4518 kinase Candida albicans; test = MIB/MS competition binding; test system = Candida albicans cell lysate; conditions = 100 nM; scale = reference: DMSO, lower = stronger binding; endpoint = log2 fold change; value = 0.949
SMILES = C[N+](C)(C)CCCn1c(=O)c2cc(Br)c3c(=O)n(CCC[N+](C)(C)C)c(=O)c4c5[nH]c6ccccc6[nH]c5c(c1=O)c2c34.[I-].[I-]; target = HIV-1 LTR-III G-quadruplex; test = FRET melting; conditions = 0.25 µM, K+ 100 mM; endpoint = ΔTm; value = 5.5 ± 0.1 °C
SMILES = Nc1nc2c(nc(Br)n2[C@@H]2O[C@@H]3COP(=O)(O)O[C@H]3[C@H]2O)c(=O)[nH]1; target = cone cGMP-gated CNG channel (Otospermophilus beecheyi); test = Hill fit; endpoint = EC50; value = ~2300 nM
SMILES = COc1cc(C(=O)NS(=O)(=O)c2ccccc2C)ccc1Cc1cn(C)c2ccc(NC(=O)OC3CCCC3)cc12; target = native VRAC; test = ion current, inhibitor, whole-cell patch clamp; test system = wild-type HCT cells; conditions = 3 µM, pH 7.4, extracellular pH; endpoint = inhibition; value = -26.4% and 4.17% and 42.9% and 11.9% and -17%
SMILES = NCCOc1cc(C(=O)Nc2cc(OCCN3CCCC3)c3ccccc3n2)nc(C(=O)Nc2cc(OCCN3CCCC3)c3ccccc3n2)c1; target = Bcl2 G-quadruplex DNA; test = FRET melting; conditions = 1 µM, pH 7.4, together with: 60 mM potassium; endpoint = ΔTm; value = 5.9 ± 0.7 K
SMILES = Cc1c(N)c(=O)n(-c2ccccc2)n1C; target = human H+/organic cation antiporter; test system = hCMEC/D3; conditions = 250 µM, 2 min, together with: 1 µM DPH preloading 30 min; scale = reference: control; endpoint = trans-stimulation ratio; value = 1.09
SMILES = CC(C)c1ccccc1O; target = HBV core protein Cp149 dimer; test = solution NMR; conditions = 4 molar equivalents, pH 7.5, 295 K, average over eight residues; scale = reference: apo Cp149 dimer; endpoint = average chemical shift perturbation; value = 0.036 ppm
SMILES = CN(C)CCCOc1cc(NC(=O)c2cc(Cl)cc(C(=O)Nc3cc(OCCCN(C)C)c4ccccc4n3)n2)nc2ccccc12; target = Bcl2 G-quadruplex DNA; test = FRET melting; conditions = 1 µM, pH 7.4, together with: 60 mM potassium; endpoint = ΔTm; value = 22.7 ± 0.8 K
SMILES = CCCCCCCC(=O)OC[C@H](COP(=O)(O)O[C@@H]1[C@H](O)[C@H](O)[C@@H](OP(=O)(O)O)[C@H](OP(=O)(O)O)[C@H]1O)OC(=O)CCCCCCC; target = Kv7.2/Kv7.3(EEE) mutant channel; test = channel activation, activator, activation curve fit; conditions = model 5; endpoint = maximal open probability; value = 0.69
SMILES = C#CCOc1cc(C(=O)Nc2cc(OCCCN)c3ccccc3n2)nc(C(=O)Nc2cc(OCCCN)c3ccccc3n2)c1; target = Bcl2 G-quadruplex DNA; test = FRET melting; conditions = 1 µM, pH 7.4, together with: 60 mM potassium; endpoint = ΔTm; value = 7.5 ± 0.4 K
SMILES = N#Cc1ccc2c(-c3ccncc3)c(-c3ccc(F)cc3)nn2c1; target = orf19.4518 kinase Candida albicans; test = MIB/MS competition binding; test system = Candida albicans cell lysate; conditions = 100 nM; scale = reference: DMSO, lower = stronger binding; endpoint = log2 fold change; value = -0.304
SMILES = NCCOc1cc(C(=O)Nc2cc(OCCN)c3ccccc3n2)nc(C(=O)Nc2cc(OCCN)c3ccccc3n2)c1; target = Bcl2 G-quadruplex DNA; test = FRET melting; conditions = 1 µM, pH 7.4, together with: 60 mM potassium; endpoint = ΔTm; value = 19.2 ± 0.9 K
SMILES = CN(C)CCCn1c(=O)c2cc(Br)c3c(=O)n(CCCN(C)C)c(=O)c4c5[nH]c6ccccc6[nH]c5c(c1=O)c2c34; target = HIV-1 LTR-III G-quadruplex; test = FRET melting; conditions = 0.25 µM, K+ 100 mM; endpoint = ΔTm; value = 7 ± 0.7 °C
SMILES = CCCCN1CCCC[C@H]1C(=O)Nc1c(C)cccc1C; target = human H+/organic cation antiporter; test system = hCMEC/D3; conditions = 250 µM, 2 min, together with: 1 µM DPH preloading 30 min; scale = reference: control; endpoint = trans-stimulation ratio; value = 0.43
SMILES = C#Cc1cc(-c2cc(Nc3nc(N[C@@H](C)c4ccc(F)cn4)ncc3Cl)n[nH]2)ccc1C=O; target = PRKAR1A-RET kinase fusion, human; test = kinase activity, inhibitor; conditions = 0.2 µM; endpoint = inhibition; value = 17.3% and 20.1%
SMILES = NCCOc1cc(NC(=O)c2cc(OCc3ccc(F)cc3)cc(C(=O)Nc3cc(OCCN)c4ccccc4n3)n2)nc2ccccc12; target = Bcl2 G-quadruplex DNA; test = FRET melting; conditions = 1 µM, pH 7.4, together with: 60 mM potassium; endpoint = ΔTm; value = 13.2 ± 0.8 K
SMILES = CSc1cc(Oc2ccnc3[nH]c(=O)cnc23)ccc1NC(=O)Nc1cc(C(C)(C)C)nn1-c1ccccc1; target = p90 ribosomal S6 kinases 1-3; test = reverse phase protein array; test system = patient-derived cell lines; conditions = 1 µM, 4 h, mean of three patients; scale = reference: DMSO; endpoint = phospho-Thr359/Ser363 RSK1-3 to total ratio; value = 0.63
SMILES = C#CCOc1cc(C(=O)Nc2cc(OCCN)c3ccccc3n2)nc(C(=O)Nc2cc(OCCN)c3ccccc3n2)c1; target = Bcl2 G-quadruplex DNA; test = FRET melting; conditions = 1 µM, pH 7.4, together with: 60 mM potassium; endpoint = ΔTm; value = 14.6 ± 0.5 K
SMILES = N[C@H]1CONC1=O; target = human H+/organic cation antiporter; test system = hCMEC/D3; conditions = 250 µM, 2 min, together with: 1 µM DPH preloading 30 min; scale = reference: control; endpoint = trans-stimulation ratio; value = 1.34

Some of these lines once more:
SMILES = CSc1cc(Oc2ccnc3[nH]c(=O)cnc23)ccc1NC(=O)Nc1cc(C(C)(C)C)nn1-c1ccccc1; target = p90 ribosomal S6 kinases 1-3; test = reverse phase protein array; test system = patient-derived cell lines; conditions = 1 µM, 4 h, mean of three patients; scale = reference: DMSO; endpoint = phospho-Thr359/Ser363 RSK1-3 to total ratio; value = 0.63
SMILES = C#CCOc1cc(C(=O)Nc2cc(OCCN)c3ccccc3n2)nc(C(=O)Nc2cc(OCCN)c3ccccc3n2)c1; target = Bcl2 G-quadruplex DNA; test = FRET melting; conditions = 1 µM, pH 7.4, together with: 60 mM potassium; endpoint = ΔTm; value = 14.6 ± 0.5 K
SMILES = N[C@H]1CONC1=O; target = human H+/organic cation antiporter; test system = hCMEC/D3; conditions = 250 µM, 2 min, together with: 1 µM DPH preloading 30 min; scale = reference: control; endpoint = trans-stimulation ratio; value = 1.34
